Experimental data gathered from unrelated publications.
A part holds a random share of what one study measured.

Block 1
Target: Hepatocyte nuclear factor 3-alpha (Foxa1, Mus musculus, UniProt P35582, residues 1-468, full length assumed)
Method: EMSA with sequencing
Molecule type: double-stranded DNA, one strand shown
Matrix: in vitro
Tested at: 10 and 20 nM
Notes: whole designed probe, mean of two concentrations, ends assumed
Relative to: negative control set to 0
Direction: higher = stronger binding
Endpoint: normalised bound fraction
Shared flanks, not repeated: GTGAGCGGTGCCCATTGATGGGGAAC … TTTCACTGGGATCGTGGGGAC
Residues (chain): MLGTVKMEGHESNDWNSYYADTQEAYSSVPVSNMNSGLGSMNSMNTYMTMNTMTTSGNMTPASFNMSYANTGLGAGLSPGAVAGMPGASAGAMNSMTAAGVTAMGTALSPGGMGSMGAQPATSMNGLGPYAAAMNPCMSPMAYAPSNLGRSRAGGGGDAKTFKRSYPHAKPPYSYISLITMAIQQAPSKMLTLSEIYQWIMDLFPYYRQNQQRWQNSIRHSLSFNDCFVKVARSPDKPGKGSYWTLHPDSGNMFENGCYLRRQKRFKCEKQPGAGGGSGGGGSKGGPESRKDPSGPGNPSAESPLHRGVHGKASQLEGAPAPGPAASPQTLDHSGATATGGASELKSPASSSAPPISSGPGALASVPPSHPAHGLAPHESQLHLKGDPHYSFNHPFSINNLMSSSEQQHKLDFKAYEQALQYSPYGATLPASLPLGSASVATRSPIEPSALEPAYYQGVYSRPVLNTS
ATCTTCCCCCTCTTCCTTGCCCCACCAGCTCACCTTCCCGGGTTATTTGCAGATAGGAAAATAAATAAAGCCGGCATTCGTTAACCCTCTTCACGCGCATACTGCCAGAGCAAACAGATCTAACATGGTCCTGATGAATCATGAGGCTCCGGGAGAGCAAAGCACCGTGTCAGGGCCATGATCCGGGGTGGCC: 0.382 ratio
TGAAGCCTAGTGTTCTCTCTCAACCCCAGCTCAAACAGATATTTTGAAAAGGAAACAGAAACTCCACACACTTCCCAGATTGCCTATTTCCAAGATTACATTTCTCTAACAGCTAACACTATGTTTGGTTAGTTTAACTAAGTTATCCTGCTCACTTAAAATTCTATTTTTTTCTGGTTATATCTGACAATAG: 0.0718 ratio
AAATGCCAACGTGTATTGGACTTCCCTCTAGTGGTTACATGCAAAATGACAAGCCTATAGTTCCCAAACAGAATGTTGTGTTGTTCTCTACACTGTTTACTTAGCAATCTGGATATTTACTGTGCTTCACTCCATGTACCTTCCATTCACACACTTGGCAAACACCATATCTTCCATGATATTCTCCTGTATC: 0.475 ratio
AGATTAAGTGTTACACTTCTTGCTTTGTTAGATAAATTGAACCACAGCAAATTTTACAAACATAATTTGTCCATATTTTCATAATAAACTCTATGTAATCTTCAGTTTTCTTGTTCCTTTAAAAACAAAATAATTCATATCAAACTGTCTTGAATAAGAAAGGCAAACCAGTCACAAGTCCACAATATTAAAG: 0.00715 ratio
AAAAGATTTGGTATCGTTTAAAAAAAAAAAAAAGCTGGGTGGGGCCGAGGAGAATCCACCCAAACTTTCCTCAGGAAGTAGGATGTTTACTGAGTAAATATGCGGTAGTCACAGAAACACCTGCTACTCCTTTAAGACCTCAGGAGCCACCACCGCCACCTCCTGGCCACATCCGGGCACTTCTCTGCAAACT: 0.329 ratio
GGAAGGAGAATATCTCTGCTACTTTATTTTTGTGTATTAGCTGATTGTTTCACGTGAAGAATGCTCACATGGTTTTTGCAATGTGCTGGCATATGTTGACATATTGATGCGTAGATGTGTTTGTGTGTTTGGTTTTAGGCAAATGGCACCAAGGCTTGAACTGCGACTCCCGAAGTGACCAGTGCCACCATCC: 0.199 ratio
TGTTTTAAGAGAAAAAGGGTTCCATGGGATCTCAAACTCTTGAGAGCTCTCTCTGTAGGTGGGAGTTCTGTCATGTGGGGTTTGTGCCCTTGTTATTTACAATGCAGAATGAACACGTGATATTTGACTCCACCTCTCCCCCACACCCAGACTGTGCCCACTTCCCCTCCTATGACATTTGGATCTTTCCATA: 0.144 ratio
ATCTTCCCCCTCTTCCTTGCCCCACCAGCTCACCTTCCCGGGTTATTTGCAGATAGGAAAATAAATAAAGCCGGCATTCGTTAACGCAGTTCTGGCGCAAACTGCTGTTTGCTCTGCATGAATCATGGTCCTTACGCGAGGCGTGGCTCCGGGAGAGCAAAGCACCGTGTCAGGCGCATGATCCGGGGTGGCC: 0.359 ratio

Block 2
Target: RNA binding protein fox-1 homolog 2, RRM domain, GST-SBP tag (RBFOX2, Homo sapiens, UniProt O43251-10, residues 100-194)
Method: RNA Bind-n-Seq
Molecule type: RNA
Matrix: in vitro
Tested at: 365 nM
Notes: natural RNA segment, single round, ends assumed
Relative to: no-protein control
Direction: higher = stronger binding
Endpoint: RBNS enrichment (R)
Shared flanks, not repeated: GGGAGUUCUACAGUCCGACGAUC … UGGAAUUCUCGGGUGCCAA
Target sequence (chain): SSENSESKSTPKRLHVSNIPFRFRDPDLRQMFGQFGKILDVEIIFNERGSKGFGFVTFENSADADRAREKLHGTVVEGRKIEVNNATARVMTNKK
UGUCCCUCAGUGCCUUCUCUCAGCUCCCAGGCCAAUGGCGGCCAGCCUUCCCCAAGACAAUGAGGUUUGCCUGCACCCUGGCCUGCUACCUGGACUUUGCCUGGUGCCUU: 0.518
ACUUAAAGUUGGCAAGUCUCAUCUUCAGUAAUACGGAUGCCAUGGGAGUGGCCAGGCCAGAUUGAAGGUGAAUAUGGAGCAGUAGCAGAAGCCUCAUUCCAGAACCCAUC: 0.205
GGGCGAACCGUUUUCGCUCGUGUGUCUGUACGCAGCAUGUUGGGAUCGGGAGUUUCGGCACAGACUAUCCCAUCAAGCCGUUGGCUCCUUUCAGCUACUACGUUACCACG: 0.358
GAACCAGCAGCCGCUAGGCCAAUCCCUGGUGGUCGGUCUCCAUCCCGAUUCCUGCCUGCCCGCUUUGAGAGACCCGGUCACUUGCUUGUGGGCCCUCCCACUUGCCUCUG: 0.372
CUGGCCUGUCCUCUAAGUCAAGUUUAGGAAAACAAGGAUAAGAUUCUGUCAUAGGCAUAGAGAGUUGCACAUAAAAAAUACCGAAGAAAACCCAAAAUUCAAUCAACAAU: 0.444
UUUAUCAUUGGGAGAAGCCGCAGGGACAGAACUGAACGUCCUGCAGCUUCGGGGCAAGUGAGACAAUCACAGCUCCUCGCUGCGUCUCCAUCAACACUGCGCCGGGUACC: 0.273
UGGCUUCUAGUCUGGUGUUCUGAGUACUUGAUUUCAGGUCAAUAACGGUCCCCCCUCACUCCACACUGGCACGUUUGUGAGAAGAAAUGACAUUUUGCUAGGAAGUGACC: 0.476
GUAUUGAAUUUAAGAAGACAGACUAGCACAAAACACAGAAUUCGUGUUAACCAAAGGAGGCAUUGAUUUCAGUUUUAAGGCUACUCAGUGUUGUGUGUCCAGGGAAAUUC: 0.386
UGGACCCUUGAUCCUGGAGGACCCUGGAAGGGGUGGUUCCCUGUAAGCUCCCAAGAUCUAUGUUCCUGGGAGUUUCCCAAACUCAUGAUGGAGUUGGUGACAAGAGCAGA: 0.427
AAUCUCUAUCCUCGUGUGCUUCAAGCUCUAUAACAACCAUAUCAUGAGGUAUUUGCAAAGGAAAACAUUUUCUCCCAUGAUUUGUUUUUUGUUGUUAUUGUUGUUGGGUU: 0.406
GUCUCCAGUUACAACUCCGCAGUGGAUGUGAAGAAGCAAAAAAAAAAAAAUCUAUUCAGUCUACUCACAAAACAGUACAUUGUGGAAUAUUAUGGGGAAUUGUACCAAAA: 0.641
CCCUUGCUUCAACCUCCCCAGGUGGGGGACCUGGCCUCUGCCUAAAUGCUUCUGGAGACGGAAACAUAUUCCCUACAGGGAAUGAAGCUUCUCAGAGAAACUGCCGAAAG: 0.213

Block 3
Target: Ras GTPase-activating protein-binding protein 1, full length (G3BP1, Homo sapiens, UniProt Q13283)
Chain of UniProt Q13283 (whole entry, looked up): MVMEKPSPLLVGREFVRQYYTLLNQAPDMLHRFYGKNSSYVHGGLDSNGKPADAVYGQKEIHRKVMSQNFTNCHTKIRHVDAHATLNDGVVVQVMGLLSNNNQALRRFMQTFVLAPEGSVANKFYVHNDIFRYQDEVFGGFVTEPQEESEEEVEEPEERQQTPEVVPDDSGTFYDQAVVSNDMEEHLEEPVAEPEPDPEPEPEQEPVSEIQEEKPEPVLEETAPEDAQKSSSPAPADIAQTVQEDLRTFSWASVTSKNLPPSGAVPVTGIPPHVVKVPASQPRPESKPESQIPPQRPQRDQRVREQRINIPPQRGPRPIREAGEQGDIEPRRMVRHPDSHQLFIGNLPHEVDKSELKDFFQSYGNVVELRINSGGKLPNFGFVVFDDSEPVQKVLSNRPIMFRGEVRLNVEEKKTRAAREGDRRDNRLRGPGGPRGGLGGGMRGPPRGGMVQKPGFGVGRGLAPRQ
Method: RNA Bind-n-Seq
Molecule type: RNA
Matrix: in vitro
Tested at: 200 nM
Notes: whole 134-nt RNA, ends assumed
With: 150 mM KCl
Relative to: input library
Direction: higher = stronger binding
Endpoint: log2 enrichment
Shared flanks, not repeated: GGGAGUUCUACAGUCCGACGAUC … UGGAAUUCUCGGGUGUCAAGG
UCCUGUGCUACACAUCGUAUGUACCGAAUCAAACCCCCAAACCCCCAAAUUUUUUUAAAAAAGUAUUAUGUUACGCCGUUCGGAUCUGCA: -0.108
CCUGUGCUACACAUCGUAUGUACCGAAUCGGGUUUUUUUGGUUUUUUUGGUUUUUUUGGGAAAGUAUUAUGUUACGCCGUUCGGAUCUGC: -1.09
UAACUUUAGAGGAGGAUCUGAUGGAUAUGGCAGUGGACGUGGAUUUUGGGAUGGCUAUAAUGGGUAUGGAGGAGGACCUGGAGGUGGCAA: 0.338
UUCAGUUUCCCAAACCUGAGAUGAUCUGUCAGCUGGAGAACUGGGACGAGCAGUGGAUCCUGGAUCUACCGAGAACUGGGAAUAGGAAGG: 0.324
CUGUGCUACACAUCGUAUGUACCGAAUCGGAAAAAAAGGGGAAAAAAAGGGAAAAAAAGGGAAAGUAUUAUGUUACGCCGUUCGGAUCUG: -1
AAGUCCUGUGCUACACAUCGUAUGUACCGAAUCGGGGUUUGGGUUUGGGGUUUGGGAAAGUAUUAUGUUACGCCGUUCGGAUCUGCACUU: 0.269
UGGUUUGAGUCCAGCCAAUGACACUGGAGCCAAAAAGAAGAAAAAGAAACAAAAAAAGAAGAAAGAAAAAGGCAGUGAGACAGAUUCAGC: 0.0621
AAGUCCUGUGCUACACAUCGUAUGUACCGAAUCGGUUUUGGGUUUUGGGUUUUGGGGAAAGUAUUAUGUUACGCCGUUCGGAUCUGCACU: -0.7
CCUGUGCUACACAUCGUAUGUACCGAAUCGGGGCCCCCCGGGGCCCCCCGGGCCCCCCGGGAAAGUAUUAUGUUACGCCGUUCGGAUCUG: -0.541
CACAGACAACACGCACCCACACAGAAACAGAGGGAAGGGGUUGGGAUGGGGACAGGGUGCACAGCAGGGCGGGGUAGGACCCCAGCCCCU: 1.81

Block 4
Target: RING finger protein unkempt homolog, zinc fingers 1-6, GST-SBP tag (UNK, Homo sapiens, UniProt Q9C0B0, residues 30-357)
Chain of UniProt Q9C0B0 (30-357, looked up): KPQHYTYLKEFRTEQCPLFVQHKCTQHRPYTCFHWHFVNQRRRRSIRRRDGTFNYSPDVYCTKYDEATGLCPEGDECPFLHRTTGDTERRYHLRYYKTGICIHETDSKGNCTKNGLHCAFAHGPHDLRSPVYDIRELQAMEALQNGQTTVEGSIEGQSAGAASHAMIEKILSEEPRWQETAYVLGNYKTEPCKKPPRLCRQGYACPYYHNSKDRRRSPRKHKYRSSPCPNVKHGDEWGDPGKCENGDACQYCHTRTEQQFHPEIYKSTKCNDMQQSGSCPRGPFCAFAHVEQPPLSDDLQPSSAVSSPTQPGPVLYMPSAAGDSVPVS
Method: RNA Bind-n-Seq
Molecule type: RNA
Matrix: in vitro
Tested at: not given
Notes: RNA with constant flanks, human-mouse chimeric sites, ends assumed
Relative to: input RNA pool
Direction: higher = stronger binding
Endpoint: bound/input enrichment
Shared flanks, not repeated: GGGAGUUCUACAGUCCGACGAUC … CAACAGAGGAUUGAGCAUCA
UUGCUACUGACUCCCUGGGUCAAGUUCCUGUGGGAGUCUUACAGGCAGUGUUUGGACCUUCUUCGAAACAAUUCUAGAGUAGAGCGCCUUUACCAUGAUAUCGCCCAACAAGCUUUCAAA: 0.147 ratio
AGAAUCUUGGGACUGUUUUACUUAAUUGGUCAUUGAUAGCUUAACAAACAUGGAGAUGAGAUUAGAAAUCUUGACAUCAACAAGUAUUAAGCAGAAAAAACCAUGGCCACGUGUCUCCUG: 0.121 ratio
UUGCUACUGACUCCCUGGGUCAAGUUCCUGUGGGAAUCAUACAGGCAGUGUUUGGACCUUCUUCGAAACAAUUCUAGAGUAGAGCGCCUGUACCAUGAUAUCGCCCAACAAGCUUUCAAA: 0.134 ratio
GAUCCACAGUGGUCUGAGGAACAGCUGAUUGCUGCAAAAUUCUGUUUUGCUGGCCUUCUUAUAGGCCAGACUGAAGUGGACAUCAUGAGUCAUGCCACACAAGCUAUUUUUGAAAUUCUG: 0.251 ratio
CUGUGUGUGCUGAAUAAAUGGCUUGUAAAGAAGUUUUUCCAAGCUGUAACCCAUGCUUCCCUUAGAGUUGCUGCAAAAUGUUCUUCCUGAUAUUGAUUUUAUUUGUUAACUGAAGGUCUC: 0.533 ratio
CUGGCCUGGCCCUCCCCUCUAGUGACCUUUCGUAUAGUCACUGCUUCUGCAUCAGAUACUUUCAGCUCCAAGUCCUGACUGGGUGGGGCACCCAUUUCAGGCAGAAGGUUUUGGUACCCU: 0.358 ratio
UUGAAAACUGAUUCAAGUAAGUUUGAGUAUCACAAUGUUAGCUUUCUAAUUCCAUAAAAGUACUUGGUACAGUUUCUUUAUAAUCUGACAUCACCCCAGCGCCAUUUGUAAAGAGCAACU: 0.793 ratio
CUGUGACCACAAGAUCCUACCUGAGUGGCAGCUGAAGUUGACUCCCUCCCCUUCCCUGAACCCCCCCCCACUGCCCCCCCAUCCCCCAGUGUCGGCUAUUCUCUGGUCUCUGCACGGUUC: 1.32 ratio
GGAAGUACAAUGAUGGAGAUUGAUGGUGACAAAGGCAAGCAGGGCGGUCCCACCUACUACAUAGACACCAAUGCCCUCCGCGUGCCCAGGGAGAACAUGGAGGCCAUUUCACCUCUAAAG: 0.3 ratio
UUUGUUUGUAACUUAUCUCUGUAAAAGUCCCCCCCCCUACUGUCAAAAAAUAUGCAUGUAUAGUAAUUAGGACUUCAUUCCUCCAUGUUUUCUUCCCUUAUCUUACUGUCAUUGUCCUUA: 2.65 ratio
CAGCGCCGAGGCCGCGGGUGCCCGCCGGGCCUCCCCAGCAGCAGCCAUGGGCAUCAAAUUUUUAGAAGUUAUCAAACCUUUCUGUGCAGUUCUACCAGAAAUUCAGAAACCGGAAAGGAA: 1.59 ratio

Repeated from above (block 4):
UUGCUACUGACUCCCUGGGUCAAGUUCCUGUGGGAGUCUUACAGGCAGUGUUUGGACCUUCUUCGAAACAAUUCUAGAGUAGAGCGCCUUUACCAUGAUAUCGCCCAACAAGCUUUCAAA: 0.147 ratio
CUGUGACCACAAGAUCCUACCUGAGUGGCAGCUGAAGUUGACUCCCUCCCCUUCCCUGAACCCCCCCCCACUGCCCCCCCAUCCCCCAGUGUCGGCUAUUCUCUGGUCUCUGCACGGUUC: 1.32 ratio
